Measured values collected from several papers.
Every numbered part comes from another study and shows a few of its results, in no order. Substitutions count along the parent as printed.

Block 1
Target: Prothrombin, mature alpha-thrombin (F2, Homo sapiens, UniProt P00734)
Method: aptamer microarray, sandwich
Form: DNA with 2'F-ANA
Sample: in vitro
Tested at: 200 nM
Setting: whole 15-mer aptamer, many near background
Added: Cy3 exosite-II aptamer, 400 nM
Reading: higher = stronger binding
Measurement: mean fluorescence intensity
Oligonucleotide: GGTTGGTGTGGTTGG
2'F-ANA at 4 7 8 9: 343 a.u.
2'F-ANA at 3 4 5 6 7 9 10 11: 51.2 a.u.
2'F-ANA at 1 3 5 6 9 11 12 13 14 15: 80.2 a.u.
2'F-ANA at 2 8 9 10 11 14 15: 80.7 a.u.
2'F-ANA at 2 6 7 10 11 12 15: 129 a.u.
2'F-ANA at 2 4 7 8 9 10 12 13 14 15: 64.6 a.u.
2'F-ANA at 2 3 5 7 10 11 13 14 15: 57.9 a.u.
2'F-ANA at 1 4 7 8 9 10 11 13 15: 50.9 a.u.

Block 2
Target: CCNB1, cyclin fold, Cln2 fusion (human)
Method: yeast growth competition, sequencing
Sample: yeast
Setting: strong parent motif
Reference: not given
Reading: higher = stronger binding
Measurement: normalised enrichment score
Starting sequence: viral docking peptide; KGVKRKLFAEDSS; partner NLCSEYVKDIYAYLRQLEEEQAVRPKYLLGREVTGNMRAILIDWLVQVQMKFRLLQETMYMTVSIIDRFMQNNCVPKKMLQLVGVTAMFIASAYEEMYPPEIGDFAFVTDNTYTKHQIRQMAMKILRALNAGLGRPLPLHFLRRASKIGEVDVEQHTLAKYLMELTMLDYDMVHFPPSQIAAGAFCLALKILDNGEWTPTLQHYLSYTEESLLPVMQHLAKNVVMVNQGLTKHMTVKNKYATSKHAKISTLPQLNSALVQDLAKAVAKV
KGVKGKLFAEDSS [R5G]: -0.045
KGHKRKLFAEDSS [V3H]: 0.451
KGVKRKLQAEDSS [F8Q]: 0.595
KMVKRKLFAEDSS [G2M]: 1.65
KGVKRKLFAKDSS [E10K]: 0.364
KGVKVKLFAEDSS [R5V]: 1.11
KGVKRKLFAEKSS [D11K]: 1.05
KGVSRKLFAEDSS [K4S]: 2.45
KGVKWKLFAEDSS [R5W]: 0.433
KGVKAKLFAEDSS [R5A]: 0.536
KGKKRKLFAEDSS [V3K]: 0.463
KGVKRKLFAECSS [D11C]: 1.53
KGVQRKLFAEDSS [K4Q]: 2.9
KGVKRYLFAEDSS [K6Y]: 0.322
KGVKRKVFAEDSS [L7V]: 0.0597
KGVKRKLFQEDSS [A9Q]: 2.19
KIVKRKLFAEDSS [G2I]: 1.53
KGVKRKLFAEDIS [S12I]: 2.62
KGVKRFLFAEDSS [K6F]: 0.0488
KGVKRRLFAEDSS [K6R]: 3.24
KGFKRKLFAEDSS [V3F]: 0.751
KGIKRKLFAEDSS [V3I]: 1.62
KGVKRKLPAEDSS [F8P]: -0.0519
KQVKRKLFAEDSS [G2Q]: 2.46
KGVKRKLDAEDSS [F8D]: -0.0765

Block 3
Target: RNA binding protein fox-1 homolog 2, RRM domain, GST-SBP tag (RBFOX2, Homo sapiens, UniProt O43251-10, residues 100-194)
Method: RNA Bind-n-Seq
Form: RNA
Sample: in vitro
Tested at: 365 nM
Setting: natural RNA segment, single round, ends assumed
Reference: no-protein control
Reading: higher = stronger binding
Measurement: RBNS enrichment (R)
Shared flanks, not repeated: GGGAGUUCUACAGUCCGACGAUC … UGGAAUUCUCGGGUGCCAA
Residues (chain): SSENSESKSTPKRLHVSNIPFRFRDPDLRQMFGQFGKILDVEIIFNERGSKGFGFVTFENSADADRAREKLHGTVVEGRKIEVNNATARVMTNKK
UAAACUGCAUGCUGCCAAGUGCCAUUUGGGGUCAGCAUCCUCGUUUCAACACAGUGUGCUCUCUAGUUAUCAUGUGUAACGUGGGUUCUGUUUAGCGAAGAUAGACUAGA: 0.881
GGGAAAUACCUUUCCUGGGCUUGUUUUCUAGCAUAUCACUGACCUGGGAUCUUUGGGUGAUCAAGGGUGUGGUUAGUGGAGGCUCUGUGCUGCACGUAUGCAGUAUCCUA: 0.324
UAGAGGAAAAGUUACUGGUGGUACCUUGCUGCCUGCUCUGCUGGUAGAAUUCUGUGCUCCCCGUGACACUUAGUACAUUAAGAAUGACUACACUGUUCCUCGUAUGUGAA: 0.272
UCCUAGAGCGCCCGGUGCCCCUCCCCGGCCUCCGGAAGAUCAGGGUGCGAGGUGUCGGUUCCCUCCUGUCCUGUGGUCCUGCCCCUGGGAUGGGGGUGCCUUGCUCCAGC: 0.441
UAGUUAGAUUUCACCUGCAUAUACAUUUUUCCAUUUUAUGCUCUAUGAUCUGAACAAAAGCUUUUUGAAUUGUAUAAGAUUUAUGUCUACUGUAAACAUUGCUUAAUUUU: 0.477
CGACCACCCUCUGCCCCUCCUGCAGUCAGAACCCGAGUAGUGCAAGAACGGCCACCCGGUUUUGCCAGCGUUCAGCGUCUGCCCAUGGACCCAUAAGGCACAUUAGCGUU: 0.439
CCUUUACCACUAUCCAUGUGAGCAUUGACAAAUCAUGGCUUAGAGGUGCUCACUGACUCGCUAAGACGACUUUGGCCCUGUUGAUGACUGGUGCUGUGCUCCAGCCUUAU: 0.296
AAACAUUAAUGCUUAGAAUUCUGAGAUCCAGCACAACUCAGUCUGUGGGAGCUCAGCUCGCUGCCCAGGGAUAGGUAUGACCUAUGUCUGCCUUAGGCUGCUGGGAGAUG: 0.444

Block 4
Target: tungstate, free oxyanion
Method: microfluidic competitive inhibition
Sample: in vitro, cell-free expressed
Tested at: not given
Setting: derived from inhibition constants, unchanged parent 2230 nM
Reading: lower = stronger binding
Measurement: oxyanion analog dissociation constant
Starting sequence: PafA, mature enzyme, eGFP fusion (Elizabethkingia meningoseptica, UniProt Q9KJX5); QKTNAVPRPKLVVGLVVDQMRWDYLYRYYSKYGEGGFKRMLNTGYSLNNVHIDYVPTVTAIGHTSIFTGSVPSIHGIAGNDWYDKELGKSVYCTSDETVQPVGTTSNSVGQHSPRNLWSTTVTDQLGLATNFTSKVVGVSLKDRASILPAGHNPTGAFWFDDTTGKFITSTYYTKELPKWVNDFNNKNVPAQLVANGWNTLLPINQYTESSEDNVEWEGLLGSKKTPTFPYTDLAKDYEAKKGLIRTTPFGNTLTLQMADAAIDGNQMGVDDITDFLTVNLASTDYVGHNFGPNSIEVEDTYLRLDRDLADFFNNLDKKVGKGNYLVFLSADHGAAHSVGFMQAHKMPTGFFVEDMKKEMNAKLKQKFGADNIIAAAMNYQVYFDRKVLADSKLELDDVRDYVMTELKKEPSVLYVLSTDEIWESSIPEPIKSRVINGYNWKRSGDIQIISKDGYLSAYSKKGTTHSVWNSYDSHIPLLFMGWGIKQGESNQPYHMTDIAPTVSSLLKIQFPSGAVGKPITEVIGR
K486G: 2.26 µM
N48V: 4.9 µM
G484V: 3.73 µM
T255V: 2.75 µM

Block 5
Target: RING finger protein unkempt homolog, zinc fingers 1-6, GST-SBP tag (UNK, Homo sapiens, UniProt Q9C0B0, residues 30-357)
Method: RNA Bind-n-Seq
Form: RNA
Sample: in vitro
Tested at: not given
Setting: RNA with constant flanks, ends assumed
Reference: input RNA pool
Reading: higher = stronger binding
Measurement: bound/input enrichment
Shared flanks, not repeated: GGGAGUUCUACAGUCCGACGAUC … CAACAGAGGAUUGAGCAUCA
Construct (chain): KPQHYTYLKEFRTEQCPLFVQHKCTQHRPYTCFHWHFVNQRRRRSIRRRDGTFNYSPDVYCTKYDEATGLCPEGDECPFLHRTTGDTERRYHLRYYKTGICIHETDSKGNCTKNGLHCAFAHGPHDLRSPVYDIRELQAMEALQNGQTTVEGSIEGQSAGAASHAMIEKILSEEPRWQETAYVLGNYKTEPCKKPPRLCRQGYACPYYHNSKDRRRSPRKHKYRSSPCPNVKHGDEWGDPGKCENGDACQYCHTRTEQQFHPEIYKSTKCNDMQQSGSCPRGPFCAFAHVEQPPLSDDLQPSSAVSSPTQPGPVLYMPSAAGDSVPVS
CACCUCAAAGUCUUUGCAAAACCCAAAAUCACAUAUGUAGAGAACCAGACUGCCAUGGAAUCCGAGGAGCAGGUCACUCUUACCUGUGAAGCCUCCGGAGACCCCAUUCCCUCCAUCACC: 0.271 ratio
GAAUACAUUGAUCAAGGUCGGAAUCCCCAGCUCUACACCAAAGAAUGCCUGGAGAGGGCUCCCGCUAAAAACGAGCAAGUCAAGGGCAAGAUCGACACAAUGAAGAAAUUUAAAAGCCUA: 0.275 ratio
UCAGACAUGGACUACAUCCAGACCGACGCCAUCAUCAACUAUGGAAACUCGGGAGGCCCGUCCGUAAACCUGGACGGUGAAGUGAUUGGAAUUAACACUUUGAAAGUGACAGCUGGAAUC: 0.0934 ratio
ACGCGAUGACAGUGACCUGGCCAUCGGCACUCUCCUGGGAGGACUGGCUCAGGGCCAUUUAACCGCUACAGCUUCAUGCCUCUUGCCACCAAUCAGACAUUAGCAAUUCCUUUCUCUUUU: 0.379 ratio
ACUGGAGAGAAACCUUACAAAUGUAGUGAAUGUGAGAAAUCCUUUACAGUAGGCUCGGAUCUCCGAAUGCAUCAAAAAAUUCAUACUGGAGAGAAACCUUACAAAUGUAGUGACUGUGAU: 0.477 ratio
UAAAGCAGGUUCAAAAACACAUGAACUGCAGAUGCCAUAGGCCUCAAAUCAGCUGUAAUUCCCGGAGACACGUGUUGAUCUAGUUAUCUAACAUUGUUGUUAUAAGAAAAUGAGUUUACU: 0.118 ratio
UGUAACUUAUCUGUAAAAGGUUCCCCCCCCCUACUGUCAAAAAAUAUGCAUGUAUAGUAAUCCGGACUUCAUUCCUCCAUGUUUUCUUCCCUUAUCUUACUGUCAUUGUCCUUAAACCUU: 1.25 ratio
CCAUCAGCUUCUGAAGUUCCCGAUAAUAGGGCAUCUGAAGCUUCUCAGGGAUUUCGAUUUCUCCGGCGAAGAUGGGGUUUGUCAUCUCUUAGCCACAAUCAUAGCUCUGAGUCAGAUUCA: 0.169 ratio
